# Assay results of several laboratories.
# Numbered parts are unrelated; each lists some results of a single study. Positions count from the first letter of the parent shown.

# Study 1
# Target: RNA binding protein fox-1 homolog 2, RRM domain, GST-SBP tag (RBFOX2, Homo sapiens, UniProt O43251-10, residues 100-194)
# Method: RNA Bind-n-Seq
# Form: RNA
# Medium: in vitro
# Concentration: 365 nM
# Notes: natural RNA segment, single round, ends assumed
# Reference: no-protein control
# Reading: higher = stronger binding
# All sequences stand within: GGGAGUUCUACAGUCCGACGAUC … UGGAAUUCUCGGGUGCCAA
# Construct (chain): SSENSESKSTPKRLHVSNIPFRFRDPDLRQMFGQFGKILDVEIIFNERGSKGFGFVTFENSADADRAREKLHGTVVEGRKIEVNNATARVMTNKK
Strand,RBNS enrichment (R)
UUCUAGCCAAAGAUGAUAAAGGGGGAAAUGGUUUUUAGUGCGUAUAUUAUACUGCCUCUUAGGUGUACUCUUUAUAAGCUGGUAAACCAAGAAUCUAGGGAGUGGCCAAA,0.531
GAAGCCCAUGAACCAUCGCUGAGGUUCUGAUACAACAUAGAGUUUUUUCCAAGGAGUGAAUGUGGUUUAAUUACUGGACUCUCUUAGCACAGGAAGGUGGAAACAAAAUG,0.565
UCUUAUAUUGUAGGCAUUUCUCAAGUGUUUUAGAUAUUAAUAACUAACAUUGGGAUUUUACUUUGCCAGCCCCAGCCUUCAGAACUCCAUUGUCAUAGUACACCUGUAAA,0.418
AUACCUCCGUCUGACUCCUCAUUCUUCUGCAUUCUUGUACACUCCAUCAGUCAUCUAACAACAAAGAUACAUUAUUCACUCAUUGUCACCUCUGAGGCUUCUAUCAUAAC,1.78
AGUGGCCUCUAGAGGGUGGUCCUGUAGACCGCACCUUUUAGAGUCGAGGCCUCUGUGGUUGUGCCGCGGGUUUGCUGCUGUGCUGAGUCCUUCUGGGGGAGCCCUAAGAG,0.402
CUAGAUUCAGCAAUGAAAAUCCACAAAGAUUCAGGAAAACUUUAGCUACAAAUACCUUAAAAAUGAUAGAUUGAUGAUUUCCUUAAUUCCUAGAAUUUCUUUUAUAAAUG,0.374
UGAAAUUGCAAAACUCUUGUAGCUCAUUCUGAAAUCUUUCCCCUGUAGUCCAGAACUGGGGAGGCCAGGAGAGCCGUUACUCACUCCAUGGCUCUCAGACCGCGUUCCUC,0.413
UCUCUUCUUGUAGUCUCUAUGGCGUGUCUUUAUGGUGUAAUAAGGUUCUCACGGGUUCAAUCUUUUGUGUUUAGAGAGGCCACGGUUCAGACAAUGGUAUAUAUUUUUGU,0.523
AGCAGUCACCUGCUGUCACUAGUGCAUGGGAAGACAGAUGCACAGAAGAGCCAGGUAGCACCUGAAAACGCUGCACGUGUGUUUGUGAAACCUGUAGUGAAGUAGACUUG,0.915
GCAUAUUGUUUAUAAAGAUACAUUUACAAUUUACUUUUAAUAUUAAAAAUUACCACAUUAUAAAAUUGUUUAUAGUAUUUAAAGAAUGAAUGCAUGUCUCCCAUUCUGCC,1.15
CCUAUAGCCUCAGCUUCAGAAGCCAGUAGCCUCCAGCCACAGAGUAUCGUGUUGUGGGCUGUUUGAGAAGACCUGUCCUCCUGAGCUGCUCCUUCCCAUGGUGCUCACAG,0.381
GGGCCAUGGGAGGUCCUGGCUAGAGUUCUGCCCAACCUUGACCAACCCCAGCAAUUUUUCCAAAAGCCAGUCAAGGGCAUUACAUUUGUUCCUGGGACUGGCAGCUGGGC,0.243

# Study 2
# Target: CCNE2, cyclin fold, Cln2 fusion (human)
# Method: yeast growth competition, sequencing
# Medium: yeast
# Notes: weak parent motif
# Reference: not given
# Reading: higher = stronger binding
# Starting sequence: ORC1 docking peptide (human); PRARKRLELGNLG
Substitution,normalised enrichment score
R4I,0.0334
R2H,0.659
G13K,0.938
R4H,0.429
K5C,0.356
K5A L7A,0.254
K5Y,0.38
K5S,0.453
R2T,0.225
L9A,0.722
L7F,0.0939
L12N,0.775
N11H,0.395
R6V,1.1
E8Y,0.818
G13P,0.327
R6D,0.0618
L7Q,0.676
E8A,0.672
R6P,0.0175
E8T,-0.347
L7R,1.24
K5R L9F,5.9
R4E,0.637
N11I,-0.0748

# Study 3
# Target: BATF2, bZIP domain (human)
# Method: DHFR protein complementation
# Medium: yeast
# Notes: single substitutions, most at no-binding floor
# Reference: wild-type JUN-FOS pair
# Reading: higher = stronger binding
# Starting sequence: JUN, bZIP domain (human); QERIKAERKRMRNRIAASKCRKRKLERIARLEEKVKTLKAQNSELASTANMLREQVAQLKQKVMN; partner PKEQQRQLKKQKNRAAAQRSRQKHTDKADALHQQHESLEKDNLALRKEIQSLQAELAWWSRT
Substitution,binding fitness [natural log]
R53W,-1.21
A46C,-0.412
Q55Y,-1.04
S43T,-0.144
R53S,-1.06
E44F,-0.598
L38D,-1.52
K39A,-0.448
M51P,-1.24
L31F,-1.01
N42R,-0.819
L38N,-1.51
E54V,-0.645
V35K,-1.48
L38K,-1.21
L31R,-1.38
R30Q,-0.11
L45W,-1.3
E33T,-0.622
M51L,-0.247
R53Y,-1.38
A49D,-1.32
E44C,-0.618
K39W,-0.922
V35G,-1.32

# Study 4
# Target: ABI1, truncated, D143A, DHFR fusion (Arabidopsis thaliana)
# Method: DHFR PCA, deep sequencing
# Medium: yeast
# Notes: methotrexate growth selection, single substitutions
# Added: (+)-ABA 4.8 µM
# Reference: wild-type fitted maximum
# Reading: higher = stronger binding
# Starting sequence: PYL1, truncated, DHFR fusion (Arabidopsis thaliana); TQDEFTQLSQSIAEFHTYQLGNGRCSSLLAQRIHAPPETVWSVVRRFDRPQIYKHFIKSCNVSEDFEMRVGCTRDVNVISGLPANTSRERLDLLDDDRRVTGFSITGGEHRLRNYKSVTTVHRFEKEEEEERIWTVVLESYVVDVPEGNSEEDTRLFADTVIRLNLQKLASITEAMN; partner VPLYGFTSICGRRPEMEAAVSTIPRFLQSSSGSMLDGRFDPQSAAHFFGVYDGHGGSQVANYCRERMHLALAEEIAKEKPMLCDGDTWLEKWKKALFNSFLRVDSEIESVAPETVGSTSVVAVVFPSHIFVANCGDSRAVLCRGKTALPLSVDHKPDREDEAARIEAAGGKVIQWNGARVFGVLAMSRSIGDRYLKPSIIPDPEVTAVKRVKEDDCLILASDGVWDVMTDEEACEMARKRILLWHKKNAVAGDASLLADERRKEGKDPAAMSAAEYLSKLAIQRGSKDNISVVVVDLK
Substitution,relative binding score [%]
F56N,-1.42
T17F,14.3
L20A,82.1
S42Y,12.9
F124T,25.5
F157Y,25.5
R155I,62.3
D75G,17.4
T160C,46.1
K116H,50.2
L138F,53.5
E4M,69.4
A175C,69.2
E109G,29.7

# Study 5
# Target: Ras GTPase-activating protein-binding protein 1, full length (G3BP1, Homo sapiens, UniProt Q13283)
# Chain of UniProt Q13283 (whole entry, looked up): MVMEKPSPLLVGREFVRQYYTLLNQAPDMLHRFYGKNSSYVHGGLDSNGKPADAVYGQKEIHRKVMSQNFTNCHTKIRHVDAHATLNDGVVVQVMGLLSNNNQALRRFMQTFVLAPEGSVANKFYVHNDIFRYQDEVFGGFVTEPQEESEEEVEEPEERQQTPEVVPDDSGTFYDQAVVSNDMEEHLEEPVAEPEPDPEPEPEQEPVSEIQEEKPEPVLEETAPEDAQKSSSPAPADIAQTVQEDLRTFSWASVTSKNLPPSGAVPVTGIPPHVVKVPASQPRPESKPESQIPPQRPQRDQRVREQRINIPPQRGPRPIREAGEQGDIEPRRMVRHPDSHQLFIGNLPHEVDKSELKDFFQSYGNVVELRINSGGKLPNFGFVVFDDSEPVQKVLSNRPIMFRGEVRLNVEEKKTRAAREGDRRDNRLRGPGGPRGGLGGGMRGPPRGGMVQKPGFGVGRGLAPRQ
# Method: RNA Bind-n-Seq
# Form: RNA
# Medium: in vitro
# Concentration: 200 nM
# Notes: whole 134-nt RNA, ends assumed
# Added: 150 mM KCl
# Reference: input library
# Reading: higher = stronger binding
# All sequences stand within: GGGAGUUCUACAGUCCGACGAUC … UGGAAUUCUCGGGUGUCAAGG
Strand,log2 enrichment
CACAGACAACACGCACCCACACAGACACAGAGGGAAGGGGUUGGGAUGGGGACAGGGUGCACAGCAGGGCUGGGUAGGACCCCAGCCCCU,1.98
UCCUGUGCUACACAUCGUAUGUACCGAAUCGGCCCCCCGGGGCCCCCCGGCCCCCCGGGAAAGUAUUAUGUUACGCCGUUCGGAUCUGCA,-0.911
GUCCUGUGCUACACAUCGUAUGUACCGAAUCGGUUUUUUGGUUUUUUGGGUUUUUUGGAAAGUAUUAUGUUACGCCGUUCGGAUCUGCAC,-1.18
AGUCCUGUGCUACACAUCGUAUGUACCGAAUCGGGUUUUUUUGGGAAAAAGGGAGGGAAAGUAUUAUGUUACGCCGUUCGGAUCUGCACU,-0.0219
CAAGUCCUGUGCUACACAUCGUAUGUACCGAAUCGGGUUUGGGGUUUGGUUUGGGGAAAGUAUUAUGUUACGCCGUUCGGAUCUGCACUU,0.108
CAAGUCCUGUGCUACACAUCGUAUGUACCGAAUCGGUUUUUGGAGGAAAAAAAGGAAAGUAUUAUGUUACGCCGUUCGGAUCUGCACUUC,-0.554
UGGGAGGGGGAUUUUGUUUAUUUUUUUAGCUCAUUUCCAGGGGUGGGAAUUUUUUUUUAAUAUGUGUCAUGAAUAAAGUUGUUUUUGAAA,0.416
AAGUCCUGUGCUACACAUCGUAUGUACCGAAUCGGGUUUUGGGGUUUUGGGUUUUGGAAAGUAUUAUGUUACGCCGUUCGGAUCUGCACU,-0.711
UGGGCAUUUUGGUGGAGACGAUGAGCACCAACGACACGAUCGUCAGUGGCACGCUGCCCCAGCGCAUGGCGUCCUGCCUGGAGGUGCUGG,-1.43
UGCGGGCCGAGAAUCGGGAGCUGGGCAAACGCGUACAGGCACUGCAGGAGGAGAGUCGCUACCUACGGGCAGUCUUAGCCAACGAGACUG,-0.842
CACAGACAACACGCACCCACACAGACACAGAGGGAAGGGGUUGGGAUGGGGACAAGGUGCACAGCAGGGCGGGGUAGGACCCCAGCCCCU,1.82
UGGCCCUGGUGGCAUGCGGGGAGGAGGAGGUGGCCUCAUGGAUCGUGGUGGUCCCGGUGGAAUGUUCAGAGGUGGCCGUGGUGGAGACAG,0.624
UGGUGGACAGAAGGCACUGCAGCCUGAAAUGGCAGAGUCUGGUGCUGACGAUCCGCGAGAAGAUCAAUGCUGCCAUCCAGGACAUGCCAG,-1.64
CCAACUCCUAUAAUUCCCUAUCUUUUAGUUUUAGUUGCAGAAACAUUUUGUGGUCAUUAAGCAUUGGGUGGGUAAAUUCAACCACUGUAA,-0.0776

# For quick reference, copied from above (study 4):
Substitution,relative binding score [%]
L20A,82.1
A175C,69.2
T17F,14.3
R155I,62.3
L138F,53.5
S42Y,12.9
D75G,17.4
T160C,46.1
E4M,69.4
F157Y,25.5
F56N,-1.42
